# Published values of several laboratories.
# Each numbered part is a random draw from the data of one study; scales do not carry over between parts. Substitutions count along the parent as printed.

# Block 1
# Target: Phosphate system positive regulatory protein PHO4, full length, GST-tagged (PHO4, Saccharomyces cerevisiae, UniProt P07270, residues 1-312)
# Technique: competition protein-binding microarray
# Molecule type: double-stranded DNA, one strand shown
# Sample: in vitro
# Concentration: 2 µM
# Notes: whole 60-bp probe, lowest competitor level
# Added: Cbf1 competitor, 0.05 µM
# Reading: higher = stronger binding
# Construct (chain): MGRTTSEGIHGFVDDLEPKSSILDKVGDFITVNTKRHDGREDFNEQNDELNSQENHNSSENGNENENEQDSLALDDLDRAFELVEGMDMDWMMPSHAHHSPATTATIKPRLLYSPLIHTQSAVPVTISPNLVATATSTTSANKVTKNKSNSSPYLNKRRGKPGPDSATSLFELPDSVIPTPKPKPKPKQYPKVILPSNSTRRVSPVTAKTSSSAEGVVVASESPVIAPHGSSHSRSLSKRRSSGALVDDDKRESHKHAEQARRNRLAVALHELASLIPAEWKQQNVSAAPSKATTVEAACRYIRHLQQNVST
Sequence,fluorescence intensity
AAAGCGGTAATTTGTCTGGTGGGTGCAGATATCTATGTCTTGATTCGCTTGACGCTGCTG,4020 a.u.
CTTTCCCGATCTTTTCACGTGGCTTTAGCACATTTGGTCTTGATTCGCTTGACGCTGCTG,12600 a.u.
TTGAAAGCTGGTACGACCGTGATGGGCGGCGGTGTTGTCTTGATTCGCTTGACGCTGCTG,4740 a.u.
TGCGCAACAACTTGAACCGTGGGTGTATGTCTAGAAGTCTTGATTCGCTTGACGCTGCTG,6880 a.u.
TATATAAGATAATTGCACATGCAAACAGTCAATCTTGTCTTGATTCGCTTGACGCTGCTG,8600 a.u.
CATACCCAACCTTGTCCAGTGGGTGAAGATATTTGTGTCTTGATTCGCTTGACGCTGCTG,4280 a.u.
GCAGCACAATCTCCCGTAGAATTATCAAGAATGTTTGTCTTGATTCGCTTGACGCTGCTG,3890 a.u.
CTTTCCCGATCTTGTCATGTGGGTGTAGCACATTTGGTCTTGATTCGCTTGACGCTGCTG,8760 a.u.
TTTTGTGAGCTTTCTTTTTACTCAAACGAACTGTGTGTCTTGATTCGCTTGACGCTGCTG,3100 a.u.
AAGTAGGAGTATAAGAGCGTGGGTAAACACAAAATGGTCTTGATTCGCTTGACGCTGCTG,8320 a.u.
ACAAAATTCCCCCATCACGTGAAGCAGGAGGCGCAAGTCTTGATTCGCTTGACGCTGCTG,10800 a.u.
GGTCTCCTCGGTGAAAGCGTGATGGGATAGCCGTTAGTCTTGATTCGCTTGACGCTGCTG,6120 a.u.
CGTCAGCAAAGGGGACCCGTGATGGAGGCGGCCGGGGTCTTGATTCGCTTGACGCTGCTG,5980 a.u.
CCATTGGTGTACCGTCACGTGCTAAGGTTCTGCTGTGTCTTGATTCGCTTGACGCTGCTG,17700 a.u.
ACTTGGCGTTGGTCCAACGTGGAATTTCAACAACCAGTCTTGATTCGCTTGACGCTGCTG,8940 a.u.
CTTCTGTAAATTTGAGACGTGGGTGGACGCGCCCCGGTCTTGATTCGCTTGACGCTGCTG,5750 a.u.
AGCTGGGACTATAGGCACGTGCCACCACACCCAGCTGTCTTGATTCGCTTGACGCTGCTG,18800 a.u.
TTTTTGTTCGCTACCCACGTCTTGACCGACGGTACCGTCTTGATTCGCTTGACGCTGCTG,6660 a.u.
CTAACGAAGGTTTGTCACAGGACTTACAAGCCAAGTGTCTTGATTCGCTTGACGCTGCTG,4280 a.u.
CATACCCAACCTTGTCACGTCACTTAAGATATTTGTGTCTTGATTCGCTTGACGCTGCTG,4760 a.u.
AATAAGACGGACGGCCACGTGACGGAAGATTTTTTTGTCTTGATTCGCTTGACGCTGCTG,17900 a.u.
AAAAAAAATTTTCGCCTCGTGGCCGGAAACACGGCCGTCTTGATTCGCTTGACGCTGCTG,11700 a.u.
CGGGGTTAAGTTTGGTATGTGGGTGGCTTGCAGCAGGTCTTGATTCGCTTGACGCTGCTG,5120 a.u.
CCGGTTTAACCCCCCGGCGTGCTTTGGTAGGTGCCCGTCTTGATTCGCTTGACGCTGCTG,6840 a.u.
TCTAATGTTATTCGTCACGTCGATCTGACATATATCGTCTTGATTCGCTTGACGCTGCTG,4530 a.u.

# Block 2
# Target: Histone acetyltransferase KAT6A, winged helix 2, GST fusion (KAT6A, Homo sapiens, UniProt Q92794, residues 85-181)
# Technique: protein binding microarray
# Molecule type: double-stranded DNA, one strand shown
# Sample: in vitro
# Concentration: not given
# Notes: 8-mer, flanks averaged, mean of 2 arrays, mostly near background
# Baseline: not given
# Reading: higher = stronger binding
# Target sequence (chain): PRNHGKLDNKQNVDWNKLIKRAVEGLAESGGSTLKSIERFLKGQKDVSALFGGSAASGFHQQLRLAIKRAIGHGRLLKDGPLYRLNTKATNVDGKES
Sequence,E-score
CCTCTAAA,-0.0871
CAGATAGA,-0.0566
CCCACAGC,0.0858
GCTCAACA,0.0778
AAAGCGCA,0.021
AACGTTGT,-0.221
CCGGCGAA,0.192
CTGGGCTA,-0.0675
CACAGGCA,-0.106
GAGTTGTA,-0.0054
AGACTGTG,-0.287
GGCCCGCA,0.115
AAAGATGA,0.0903
AGGCCTGA,0.0309
ACTGTTAT,-0.165
CGCTTCCG,0.109
TGTTAGAA,-0.0412
GCGTCAAC,-0.108
AAACAAAA,-0.0874
CCACCGAC,0.0103
AGTAGGAG,-0.103
CCAAGACG,-0.116
CATGATCC,-0.116
GGGACGCA,0.0448
AGGACTAA,-0.0783

# Block 3
# Target: ABI1, truncated, D143A, DHFR fusion (Arabidopsis thaliana)
# Technique: DHFR PCA, deep sequencing
# Sample: yeast
# Notes: methotrexate growth selection, single substitutions
# Added: (+)-ABA 200 µM
# Baseline: wild-type fitted maximum
# Reading: higher = stronger binding
# Starting sequence: PYL1, truncated, DHFR fusion (Arabidopsis thaliana); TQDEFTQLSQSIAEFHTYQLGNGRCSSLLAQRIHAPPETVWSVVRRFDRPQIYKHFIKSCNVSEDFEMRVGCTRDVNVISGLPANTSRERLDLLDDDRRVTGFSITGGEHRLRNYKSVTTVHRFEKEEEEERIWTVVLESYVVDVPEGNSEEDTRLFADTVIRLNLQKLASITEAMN; partner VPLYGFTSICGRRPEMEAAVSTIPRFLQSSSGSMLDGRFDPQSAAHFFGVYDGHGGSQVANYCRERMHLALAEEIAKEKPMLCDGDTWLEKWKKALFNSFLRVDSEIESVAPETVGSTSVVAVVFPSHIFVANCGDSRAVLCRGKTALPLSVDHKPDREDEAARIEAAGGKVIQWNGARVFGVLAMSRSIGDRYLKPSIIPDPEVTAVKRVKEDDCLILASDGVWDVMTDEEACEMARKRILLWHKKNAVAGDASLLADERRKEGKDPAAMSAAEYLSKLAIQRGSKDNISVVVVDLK
Variant,relative binding score [%]
S26F,92.3
S42I,68.4
V70T,96.8
E89T,-3.84
I12M,79.6
A30E,93.3
P146V,59.4
T1Y,98.4
I57V,101
V62R,62.5
Q167D,84.5
L166T,-1.06
E64I,95.4
L29T,81.3
L82M,99.9

# Block 4
# Target: CCNA1, cyclin fold, Cln2 fusion (human)
# Technique: yeast growth competition, sequencing
# Sample: yeast
# Notes: weak parent motif
# Baseline: not given
# Reading: higher = stronger binding
# Starting sequence: CDC6 docking peptide (human); TLKGRRLVFDNQL; partner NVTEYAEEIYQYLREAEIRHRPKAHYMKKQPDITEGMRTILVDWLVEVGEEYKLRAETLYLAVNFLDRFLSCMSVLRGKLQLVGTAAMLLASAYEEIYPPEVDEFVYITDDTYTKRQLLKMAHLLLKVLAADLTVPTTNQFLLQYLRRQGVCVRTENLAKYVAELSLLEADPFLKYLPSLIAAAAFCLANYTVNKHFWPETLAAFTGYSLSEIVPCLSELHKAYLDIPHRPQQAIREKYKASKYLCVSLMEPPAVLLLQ
Variant,normalised enrichment score
R5M,-0.0843
L2S,-0.194
R6L,0.419
N11P,0.327
N11M,0.154
Q12V,0.15
R5A,0.382
R6S,0.121
D10E,-0.0915
G4T,0.0553
D10H,0.156
N11V,0.209
K3E,0.0306
L2Y,0.0585
G4E,-0.0964
V8Q,0.0654
K3N,0.235
L13C,0.289
N11G,0.19
V8P,0.0709
F9C,-0.0148
F9K,0.705
D10N,0.601
Q12L,-0.00975
R6N,0.133

# Single results of other studies
Molecule,target,assay,system,conditions,how to read,measurement,result
"PhoQ, residues 284 288 289 292 302 303 DDMDFR","PhoP, residues 12 14 15 18 19 NFCKL (Escherichia coli, UniProt P23836)","Sort-seq, item: YFP reporter",E. coli,"PhoQ-PhoP variant library, added: 10 µM Mg2+","baseline: high Mg2+ state, higher = stronger signaling",fold induction,0.591

# Repeated from above (block 3):
Variant,relative binding score [%]
V70T,96.8
E89T,-3.84
I12M,79.6
A30E,93.3
P146V,59.4
T1Y,98.4
